Results from different studies.
A part holds a random share of what one study measured.
Chain of UniProt Q01726 (whole entry, looked up): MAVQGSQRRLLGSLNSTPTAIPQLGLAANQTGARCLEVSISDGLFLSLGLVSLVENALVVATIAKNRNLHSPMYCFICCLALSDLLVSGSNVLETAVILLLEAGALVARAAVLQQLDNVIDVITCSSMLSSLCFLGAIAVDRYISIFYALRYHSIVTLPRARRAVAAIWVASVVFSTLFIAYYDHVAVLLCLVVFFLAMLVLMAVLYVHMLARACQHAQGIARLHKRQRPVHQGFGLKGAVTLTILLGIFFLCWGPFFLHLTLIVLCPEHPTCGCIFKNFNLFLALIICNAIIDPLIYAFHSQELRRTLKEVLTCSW
Chain of UniProt P07333 (whole entry, looked up): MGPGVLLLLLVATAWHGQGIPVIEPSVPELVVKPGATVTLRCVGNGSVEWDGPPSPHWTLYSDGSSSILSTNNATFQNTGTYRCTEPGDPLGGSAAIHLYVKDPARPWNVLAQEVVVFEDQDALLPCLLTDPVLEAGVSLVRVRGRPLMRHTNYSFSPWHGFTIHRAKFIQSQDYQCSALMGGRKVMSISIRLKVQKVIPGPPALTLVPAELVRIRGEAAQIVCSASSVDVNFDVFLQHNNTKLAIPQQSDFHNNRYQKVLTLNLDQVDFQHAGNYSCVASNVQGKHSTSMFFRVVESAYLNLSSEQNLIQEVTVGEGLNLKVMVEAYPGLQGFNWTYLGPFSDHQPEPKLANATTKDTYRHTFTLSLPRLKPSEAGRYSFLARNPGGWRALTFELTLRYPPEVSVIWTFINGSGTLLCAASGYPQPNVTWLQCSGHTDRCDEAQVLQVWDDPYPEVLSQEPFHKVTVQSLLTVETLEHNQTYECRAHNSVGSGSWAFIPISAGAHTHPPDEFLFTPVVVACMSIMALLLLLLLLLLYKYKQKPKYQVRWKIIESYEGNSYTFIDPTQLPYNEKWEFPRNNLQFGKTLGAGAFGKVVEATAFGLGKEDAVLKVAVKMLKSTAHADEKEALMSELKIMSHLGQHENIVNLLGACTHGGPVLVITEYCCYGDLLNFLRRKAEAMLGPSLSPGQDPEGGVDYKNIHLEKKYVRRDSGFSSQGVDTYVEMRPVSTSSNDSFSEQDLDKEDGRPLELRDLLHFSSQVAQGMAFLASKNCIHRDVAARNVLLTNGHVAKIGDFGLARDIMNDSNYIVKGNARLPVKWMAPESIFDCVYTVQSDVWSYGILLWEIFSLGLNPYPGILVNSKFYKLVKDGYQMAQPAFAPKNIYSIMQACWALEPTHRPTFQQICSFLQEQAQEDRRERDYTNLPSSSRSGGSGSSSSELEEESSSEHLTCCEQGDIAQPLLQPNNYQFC
Chain of UniProt Q8TDS7 (whole entry, looked up): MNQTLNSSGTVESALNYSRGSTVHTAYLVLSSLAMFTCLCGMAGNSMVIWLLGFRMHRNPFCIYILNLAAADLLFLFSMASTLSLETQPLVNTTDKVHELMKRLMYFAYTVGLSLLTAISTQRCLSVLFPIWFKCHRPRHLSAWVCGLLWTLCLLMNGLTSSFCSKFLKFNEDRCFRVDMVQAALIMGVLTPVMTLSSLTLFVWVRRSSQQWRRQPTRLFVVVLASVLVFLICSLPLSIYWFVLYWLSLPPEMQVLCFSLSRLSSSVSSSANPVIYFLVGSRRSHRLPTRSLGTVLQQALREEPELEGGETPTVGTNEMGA
Chain of UniProt P51956 (whole entry, looked up): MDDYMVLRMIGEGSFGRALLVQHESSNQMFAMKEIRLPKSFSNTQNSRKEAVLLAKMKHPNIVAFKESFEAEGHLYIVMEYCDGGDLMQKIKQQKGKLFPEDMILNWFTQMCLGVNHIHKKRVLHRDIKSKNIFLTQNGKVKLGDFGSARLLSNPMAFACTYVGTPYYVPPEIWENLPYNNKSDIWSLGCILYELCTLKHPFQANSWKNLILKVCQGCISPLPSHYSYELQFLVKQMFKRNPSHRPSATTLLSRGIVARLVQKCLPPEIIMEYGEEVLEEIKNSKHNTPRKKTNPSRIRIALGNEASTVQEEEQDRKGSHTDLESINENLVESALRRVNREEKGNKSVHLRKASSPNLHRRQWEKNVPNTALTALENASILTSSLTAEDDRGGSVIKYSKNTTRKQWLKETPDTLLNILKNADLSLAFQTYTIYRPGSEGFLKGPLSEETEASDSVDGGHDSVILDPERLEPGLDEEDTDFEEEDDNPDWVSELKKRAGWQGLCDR
Chain of UniProt P30874 (whole entry, looked up): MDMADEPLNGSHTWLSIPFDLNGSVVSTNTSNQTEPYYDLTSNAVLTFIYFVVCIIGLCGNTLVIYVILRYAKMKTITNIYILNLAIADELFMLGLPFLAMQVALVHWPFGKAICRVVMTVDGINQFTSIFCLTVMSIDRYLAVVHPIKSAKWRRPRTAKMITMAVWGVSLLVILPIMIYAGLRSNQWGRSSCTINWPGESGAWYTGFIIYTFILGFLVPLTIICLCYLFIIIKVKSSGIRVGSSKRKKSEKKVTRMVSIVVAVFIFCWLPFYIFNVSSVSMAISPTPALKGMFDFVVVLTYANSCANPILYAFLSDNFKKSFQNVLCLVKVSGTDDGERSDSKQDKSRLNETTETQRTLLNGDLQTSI
Chain of UniProt O15552 (whole entry, looked up): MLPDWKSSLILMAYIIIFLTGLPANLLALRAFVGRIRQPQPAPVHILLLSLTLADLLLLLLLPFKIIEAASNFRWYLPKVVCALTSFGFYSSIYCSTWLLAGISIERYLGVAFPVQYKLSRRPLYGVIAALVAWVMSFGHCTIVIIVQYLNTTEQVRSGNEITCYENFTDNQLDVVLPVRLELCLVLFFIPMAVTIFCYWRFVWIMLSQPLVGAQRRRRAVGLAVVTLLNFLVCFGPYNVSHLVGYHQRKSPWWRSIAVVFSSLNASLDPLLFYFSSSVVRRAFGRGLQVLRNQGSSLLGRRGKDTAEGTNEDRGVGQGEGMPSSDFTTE
Chain of UniProt P53778 (whole entry, looked up): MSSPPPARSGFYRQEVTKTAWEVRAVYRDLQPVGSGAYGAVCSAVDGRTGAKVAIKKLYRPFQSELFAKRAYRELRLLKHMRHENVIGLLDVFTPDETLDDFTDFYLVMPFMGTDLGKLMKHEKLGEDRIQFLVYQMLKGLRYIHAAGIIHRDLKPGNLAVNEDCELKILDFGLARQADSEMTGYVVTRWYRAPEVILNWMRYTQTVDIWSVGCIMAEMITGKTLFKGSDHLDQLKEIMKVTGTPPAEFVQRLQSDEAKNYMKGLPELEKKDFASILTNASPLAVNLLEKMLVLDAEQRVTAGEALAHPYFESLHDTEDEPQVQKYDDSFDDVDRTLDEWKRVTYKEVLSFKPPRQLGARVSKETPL
Chain of UniProt P32249 (whole entry, looked up): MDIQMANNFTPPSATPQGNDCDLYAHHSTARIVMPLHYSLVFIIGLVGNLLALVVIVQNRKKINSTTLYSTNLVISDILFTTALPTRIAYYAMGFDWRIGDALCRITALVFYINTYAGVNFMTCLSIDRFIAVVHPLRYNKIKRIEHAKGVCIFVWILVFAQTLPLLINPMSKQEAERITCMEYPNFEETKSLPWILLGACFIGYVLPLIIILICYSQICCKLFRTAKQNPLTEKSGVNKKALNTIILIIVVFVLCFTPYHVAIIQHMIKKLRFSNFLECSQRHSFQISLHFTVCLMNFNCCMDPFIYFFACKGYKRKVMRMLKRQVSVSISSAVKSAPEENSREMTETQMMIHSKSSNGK
Chain of UniProt Q16581 (whole entry, looked up): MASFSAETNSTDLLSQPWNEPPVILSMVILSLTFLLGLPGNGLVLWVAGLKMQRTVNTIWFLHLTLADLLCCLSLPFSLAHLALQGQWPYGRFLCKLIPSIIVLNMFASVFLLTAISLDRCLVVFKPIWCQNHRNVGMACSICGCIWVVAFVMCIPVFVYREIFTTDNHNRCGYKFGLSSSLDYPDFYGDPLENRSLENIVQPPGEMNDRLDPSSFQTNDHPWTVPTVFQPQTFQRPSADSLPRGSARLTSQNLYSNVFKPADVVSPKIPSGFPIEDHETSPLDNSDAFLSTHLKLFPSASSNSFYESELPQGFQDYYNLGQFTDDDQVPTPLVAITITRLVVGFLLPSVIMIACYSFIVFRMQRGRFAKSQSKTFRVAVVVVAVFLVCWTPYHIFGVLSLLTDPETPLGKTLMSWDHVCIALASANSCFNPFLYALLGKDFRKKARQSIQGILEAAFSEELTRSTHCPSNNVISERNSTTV
Chain of UniProt Q96Q40 (whole entry, looked up): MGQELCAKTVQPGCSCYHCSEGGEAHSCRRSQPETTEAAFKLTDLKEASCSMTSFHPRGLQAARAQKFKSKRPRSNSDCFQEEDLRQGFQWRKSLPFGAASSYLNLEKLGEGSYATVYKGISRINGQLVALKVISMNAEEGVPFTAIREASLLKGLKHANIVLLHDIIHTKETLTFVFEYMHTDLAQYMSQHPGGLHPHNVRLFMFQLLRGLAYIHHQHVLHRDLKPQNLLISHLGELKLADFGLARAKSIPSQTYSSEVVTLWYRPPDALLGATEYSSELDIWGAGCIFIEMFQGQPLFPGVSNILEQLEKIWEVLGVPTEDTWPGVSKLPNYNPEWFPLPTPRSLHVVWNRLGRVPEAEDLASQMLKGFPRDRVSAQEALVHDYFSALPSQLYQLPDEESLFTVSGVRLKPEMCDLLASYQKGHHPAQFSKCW
Chain of UniProt P34969 (whole entry, looked up): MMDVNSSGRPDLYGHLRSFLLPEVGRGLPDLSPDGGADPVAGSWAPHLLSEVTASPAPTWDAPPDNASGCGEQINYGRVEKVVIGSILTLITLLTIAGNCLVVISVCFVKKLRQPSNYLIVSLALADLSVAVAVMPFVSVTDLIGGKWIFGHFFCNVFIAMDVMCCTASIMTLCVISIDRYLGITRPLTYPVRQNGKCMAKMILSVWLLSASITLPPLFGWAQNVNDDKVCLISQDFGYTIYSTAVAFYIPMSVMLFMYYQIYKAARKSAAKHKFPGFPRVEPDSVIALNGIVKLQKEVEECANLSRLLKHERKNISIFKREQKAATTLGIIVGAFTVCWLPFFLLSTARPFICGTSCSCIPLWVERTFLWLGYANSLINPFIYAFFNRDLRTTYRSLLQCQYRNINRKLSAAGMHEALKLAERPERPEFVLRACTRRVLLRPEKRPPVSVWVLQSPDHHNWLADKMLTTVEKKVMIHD

Block 1
Sample: 1,9-decadiene/PBS
pH: 7.4
`CC(C)C[C@@H]1NC(=O)[C@H](C)NC(=O)[C@@H](CC(C)C)NC(=O)[C@H](C)NC(=O)[C@H](CC(C)C)NC(=O)[C@H](CC(C)C)NC(=O)[C@H](CC(C)C)NC1=O` gave a logD of 0.564.
For `CC(C)C[C@@H]1NC(=O)[C@H](Cc2cscn2)NC(=O)[C@H](C)NC(=O)[C@H](CCC(=O)N2CCCC2)NC(=O)[C@@H](CCC(=O)N2CCCC2)NC(=O)[C@H](CC(C)C)NC(=O)[C@@H](CC(C)C)NC1=O`, the logD was -3.24.
With `CC(C)C[C@@H]1NC(=O)[C@H](CC(C)C)NC(=O)[C@@H](C(C)C)NC(=O)[C@H](Cc2cscn2)NC(=O)[C@@H](Cc2cscn2)NC(=O)[C@H](Cc2cscn2)NC(=O)[C@H](CCC(=O)N2CCCC2)NC1=O` the logD was -3.32.
With `CC(C)C[C@@H]1NC(=O)[C@H](CC(C)C)NC(=O)[C@H](CC(C)C)NC(=O)[C@H](C(C)C)NC(=O)[C@@H](Cc2cscn2)NC(=O)[C@H](CCC(=O)N2CCCC2)NC(=O)[C@H](C)NC1=O` the logD was -2.28.
The logD of `CC(C)C[C@@H]1NC(=O)[C@H](CC(C)C)NC(=O)[C@@H](CC(C)C)NC(=O)[C@H](CC(C)C)NC(=O)[C@@H](Cc2cscn2)NC(=O)[C@H](C)NC(=O)[C@H](CCC(=O)N2CCCC2)NC1=O` is reported as -1.41.
For `CC(C)C[C@@H]1NC(=O)[C@H](Cc2cscn2)NC(=O)[C@H](CCC(=O)N2CCCC2)NC(=O)[C@H](C)NC(=O)[C@@H](Cc2cscn2)NC(=O)[C@H](CC(C)C)NC(=O)[C@@H](CC(C)C)NC1=O`, the logD was -2.67.
`CC(C)C[C@@H]1NC(=O)[C@H](CC(C)C)NC(=O)[C@H](CC(C)C)NC(=O)[C@H](CC(C)C)NC(=O)[C@@H](CCC(=O)N2CCCC2)NC(=O)[C@H](Cc2cscn2)NC(=O)[C@H](C)NC1=O` has a logD of -1.3.
`CC(C)C[C@@H]1NC(=O)[C@H](C)NC(=O)[C@H](Cc2cscn2)NC(=O)[C@H](C)NC(=O)[C@H](C(C)C)NC(=O)[C@H](CC(C)C)NC(=O)[C@@H](CC(C)C)NC1=O` gave a logD of -2.15.
The logD of `CC(C)C[C@@H]1NC(=O)[C@H](Cc2cscn2)NC(=O)[C@@H](CC(C)C)NC(=O)[C@H](C(C)C)NC(=O)[C@H](CC(C)C)NC(=O)[C@@H](CC(C)C)NC(=O)[C@H](CC(C)C)NC1=O` is reported as 1.12.
`CC(C)C[C@@H]1NC(=O)[C@H](C)NC(=O)[C@H](Cc2cscn2)NC(=O)[C@H](CCC(=O)N2CCCC2)NC(=O)[C@H](CC(C)C)NC(=O)[C@H](CC(C)C)NC(=O)[C@@H](CC(C)C)NC1=O` gave a logD of -1.72.
The logD of `CC(C)C[C@@H]1NC(=O)[C@H](C)NC(=O)[C@@H](CC(C)C)NC(=O)[C@H](CC(C)C)NC(=O)[C@@H](Cc2cscn2)NC(=O)[C@H](CC(C)C)NC(=O)[C@@H](CC(C)C)NC1=O` is reported as -1.37.

Block 2
Structure (SMILES): NC(N)=NC(=O)c1nc(Cl)c(N2CCCCCC2)nc1N
Observed: β-arrestin recruitment
Action: agonist
Technique: PRESTO-Tango
Tested at: 10 µM
Relative to: untreated
For 2-oxoglutarate receptor 1 (OXGR1, Homo sapiens, UniProt Q96P68): “fold over basal” read 0.63.
The “fold over basal” was 1.14 fold (Metabotropic glutamate receptor 7 (GRM7, Homo sapiens, UniProt Q14831)).
Adenosine receptor A2a (ADORA2A, Homo sapiens, UniProt P29274) — “fold over basal”: 0.74.
For Sphingosine 1-phosphate receptor 1 (S1PR1, Homo sapiens, UniProt P21453): “fold over basal” read 1.19.
The “fold over basal” was 1.17 fold (Growth hormone secretagogue receptor type 1 (GHSR, Homo sapiens, UniProt Q92847)).
For Somatostatin receptor type 2 (SSTR2, Homo sapiens, UniProt P30874): “fold over basal” read 0.6.
For 5-hydroxytryptamine receptor 7 (HTR7, Homo sapiens, UniProt P34969): “fold over basal” read 1.14.
It gave 0.95 for “fold over basal” (G-protein coupled receptor 161 (GPR161, Homo sapiens, UniProt Q8N6U8)).
For G-protein coupled receptor 68 (GPR68, Homo sapiens, UniProt Q15743): “fold over basal” read 0.52.
For ADGRG1 (Homo sapiens, UniProt Q9Y653): “fold over basal” read 0.78.
For Free fatty acid receptor 2 (FFAR2, Homo sapiens, UniProt O15552): “fold over basal” read 0.65 fold.
It gave 1.77 for “fold over basal” (Melanocyte-stimulating hormone receptor (MC1R, Homo sapiens, UniProt Q01726)).
C3a anaphylatoxin chemotactic receptor (C3AR1, Homo sapiens, UniProt Q16581) — “fold over basal”: 0.78.
G-protein coupled receptor 183 (GPR183, Homo sapiens, UniProt P32249) — “fold over basal”: 0.85.
For MRGPRD (Homo sapiens, UniProt Q8TDS7): “fold over basal” read 0.96.
The “fold over basal” was 0.87 (Leukotriene B4 receptor 1 (LTB4R, Homo sapiens, UniProt Q15722)).

Block 3
SMILES: CCCOc1ccc([C@H]2[C@H](C(=O)O)[C@@H](c3ccc4c(c3)OCO4)CN2CC(=O)Nc2c(CC)cccc2CC)cc1
Technique: competition with immobilised ligand
Tested at: 1 µM
Tyrosine-protein kinase Tec (TEC, Homo sapiens, UniProt P42680); binding — remaining binding: 100%.
For Macrophage colony-stimulating factor 1 receptor (CSF1R, Homo sapiens, UniProt P07333); cell-free assay: remaining binding read 90%.
The remaining binding was 63% (Serine/threonine-protein kinase Sgk1 (SGK1, Homo sapiens, UniProt O00141); cell-free assay).
It gave 100% for remaining binding (Interleukin-1 receptor-associated kinase 3 (IRAK3, Homo sapiens, UniProt Q9Y616); cell-free assay).
For Mitogen-activated protein kinase 12 (MAPK12, Homo sapiens, UniProt P53778); cell-free assay: remaining binding read 73%.
Phosphatidylinositol 4-phosphate 5-kinase type-1 gamma (PIP5K1C, Homo sapiens, UniProt O60331); cell-free assay — remaining binding: 100%.
For Serine/threonine-protein kinase Nek3 (NEK3, Homo sapiens, UniProt P51956); cell-free assay: remaining binding read 69%.
The remaining binding was 94% (Cyclin-dependent kinase 15 (CDK15, Homo sapiens, UniProt Q96Q40); cell-free assay).
For Receptor-interacting serine/threonine-protein kinase 4 (RIPK4, Homo sapiens, UniProt P57078); cell-free assay: remaining binding read 69%.
The remaining binding was 90% (Serine/threonine-protein kinase Nek2 (NEK2, Homo sapiens, UniProt P51955); cell-free assay).
It gave 72% for remaining binding (Aurora kinase B (AURKB, Homo sapiens, UniProt Q96GD4); cell-free assay).
The remaining binding was 77% (Serine/threonine-protein kinase 38 (STK38, Homo sapiens, UniProt Q15208); cell-free assay).
The remaining binding was 77% (Serine/threonine-protein kinase LATS1 (LATS1, Homo sapiens, UniProt O95835); cell-free assay).

Block 4
Target: Diamine acetyltransferase 1 (Homo sapiens, UniProt P21673)
Action: inhibitor
Tested at: 10 µM
Relative to: control
Construct (P21673 1-171): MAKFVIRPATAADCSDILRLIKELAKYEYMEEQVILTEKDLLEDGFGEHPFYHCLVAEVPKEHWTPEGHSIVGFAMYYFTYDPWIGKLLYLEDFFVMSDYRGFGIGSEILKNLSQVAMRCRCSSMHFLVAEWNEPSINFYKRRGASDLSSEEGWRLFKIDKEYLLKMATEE
For `Oc1cc(O)c2c(c1)O[C@H](c1cc(O)c(O)c(O)c1)[C@H](O)C2`, the remaining activity was 85.6%.
With `CCCCCCCCCC(C)=O` the remaining activity was 87.4%.
`CCCCCCCCC/C=C/C(=O)CCc1ccc(O)c(OC)c1` has a remaining activity of 90.3%.
`C=C(C)[C@@H]1CC[C@]2(C=O)CC[C@]3(C)[C@H](CC[C@@H]4[C@@]5(C)CC[C@H](O)C(C)(C)[C@@H]5CC[C@]43C)[C@@H]12` gave a remaining activity of 98.4%.
For `CCCCCCCCCCCCCC(=O)OCC(O)CO` (stereo not drawn), the remaining activity was 102%.
`O=C[C@H](O)[C@@H](O)[C@H](O[C@H]1O[C@H](CO)[C@@H](O[C@H]2O[C@H](CO)[C@@H](O[C@H]3O[C@H](CO)[C@@H](O[C@H]4O[C@H](CO)[C@@H](O[C@H]5O[C@H](CO)[C@@H](O)[C@H](O)[C@H]5O)[C@H](O)[C@H]4O)[C@H](O)[C@H]3O)[C@H](O)[C@H]2O)[C@H](O)[C@H]1O)[C@H](O)CO` gave a remaining activity of 82.6%.
The remaining activity of `CC(=O)O[C@H]1C(=O)[C@@]2(C)[C@H]([C@H](OC(=O)c3ccccc3)[C@]3(O)C[C@H](OC(=O)[C@H](O)[C@@H](NC(=O)c4ccccc4)c4ccccc4)C(C)=C1C3(C)C)[C@]1(OC(C)=O)CO[C@@H]1C[C@@H]2O` is reported as 109%.
With `COc1cc2c(=O)c(-c3ccc(O)cc3)coc2cc1O` the remaining activity was 85.3%.

Excerpt of the above (block 2):
The “fold over basal” was 1.14 fold (Metabotropic glutamate receptor 7 (GRM7, Homo sapiens, UniProt Q14831)).
For 5-hydroxytryptamine receptor 7 (HTR7, Homo sapiens, UniProt P34969): “fold over basal” read 1.14.
C3a anaphylatoxin chemotactic receptor (C3AR1, Homo sapiens, UniProt Q16581) — “fold over basal”: 0.78.
G-protein coupled receptor 183 (GPR183, Homo sapiens, UniProt P32249) — “fold over basal”: 0.85.
For Free fatty acid receptor 2 (FFAR2, Homo sapiens, UniProt O15552): “fold over basal” read 0.65 fold.
For G-protein coupled receptor 68 (GPR68, Homo sapiens, UniProt Q15743): “fold over basal” read 0.52.
